Measured values gathered from unrelated publications.
Several values in a cell are separate wells, animals, samples, runs or records. ± gives the spread as reported.
Organism: Plasmodium falciparum

| Compound | test | test system | conditions | how to read | quantity | value |
| --- | --- | --- | --- | --- | --- | --- |
| O=C(Nc1cccc(Cl)c1Cl)Nc1ccnc2ccccc12 | parasite growth, SYBR Green | – | 72 h | relative to: 3D7-E182D over 3D7 | EC50 ratio | 2.7 |
| Cc1nnc(-c2ccc3ccn(CC(=O)Nc4ccccc4Cl)c3c2)o1 | parasite growth | Dd2 PfATP4 F156L | – | relative to: parental Dd2 | EC50 shift | ~2 fold |
| CCN1CCN(Cc2ccc(Nc3nc4ccc(Oc5ccnc(NC(=O)C6CCN(C)CC6)c5)cc4n3C)cc2C(F)(F)F)CC1 | heme fractionation | 3D7 | multiples of EC50 | – | hemozoin level | decreased |
| CCN(CC)CCCC(C)Nc1ccnc2cc(Cl)ccc12 (centres unmarked) | growth, [3H]-hypoxanthine uptake | Dd2 | 96 h | – | IC50 | 0.026 ± 0.001 µM |
| COc1ccccc1N1CCN(CCCCNC(=O)c2ccc3ccccc3c2)CC1 | – | HB3 | – | – | IC50 | 3.98 µM |
| O=C1C(O)=C([C@H]2CC[C@H](c3ccc(Cl)cc3)CC2)C(=O)c2ccccc21 | parasite growth | – | – | – | EC50 | 0.000904 ± 0.00023 µM |
| CC(CCc1ccccc1)NC(C)C(O)c1ccc(O)cc1 (centres unmarked) | – | Dd2 | – | – | IC50 | 6.31 µM |
| Cc1onc(-c2ccccc2)c1-c1ccc(S(N)(=O)=O)cc1 | parasite growth, inhibitor, SYBR Green I | Cam3.1 R539T (MRA-1240) | – | – | IC50 | > 100 µM |
| Clc1cccc(C(c2ccc3[nH]cnc3c2)n2ccnc2)c1 (centres unmarked) | – | FVO, purified merozoites, erythrocytes | 50 µM | – | merozoite invasion | 54% |
| Cc1cc(Nc2ccc(S(F)(F)(F)(F)F)cc2)n2nc(C(C)(F)F)nc2n1 | – | Dd2 β5 S27F resistant | – | – | EC50 | 0.0068 ± 0.0014 µM |
| Cn1nc2c(=O)n(C3CC3)cnc2c1[C@](O)(c1cnc(C(F)(F)F)c(Cl)c1)C(F)(F)F | – | Pf3D7^0087/N9, mouse, plasma | – | – | unbound plasma average concentration at ED90 | < 0.038 µM |
| CCc1nc2nc(C)cc(Nc3cc(C)cc(C)c3)n2n1 | parasite growth, SYBR Green | 3D7 wild type | 72 h | – | EC50 | 0.193 ± 0.078 µM |
| COc1cc(NC(=O)Cn2ccc3ccc(-c4nnc(C)o4)cc32)cc(OC)c1OC | – | 7G8 | – | relative to: 7G8 over 3D7 | EC50 fold shift | 2 fold |
| Oc1ccc2c3c1O[C@H]1c4[nH]c5c(c4C[C@@]4(O)[C@@H](C2)N(CC2CC2)CC[C@]314)C[C@@]1(O)[C@H]2Cc3ccc(O)c4c3[C@@]1(CCN2CC1CC1)[C@H]5O4 | – | FVO, purified merozoites, erythrocytes | 25 µM | – | merozoite invasion | 100% |
| O=C(CNCC1CCCCC1)Nc1cc(C(F)(F)F)ccc1Cl | parasite growth, SYBR Green | 3D7 DHODH E182D | 72 h | – | EC50 | 4.1 ± 0.58 µM |
| O=C(NCCN1CCCC1)c1cc(-c2ccc(CN3CCOCC3)cc2)nc2ccc(F)cc12 | 18S rRNA qPCR | human | 400 mg | – | break point of parasite clearance | 54.6 h and 55.7 h and 48 h and 66.7 h and 80 h and 43.2 h and 54.7 h and 81.1 h |
| CC(C)C[C@H](NC(=O)[C@H](Cc1c[nH]c2ccccc12)NC(=O)CN1CCOCC1)C(=O)N[C@H](/C=C/S(C)(=O)=O)Cc1c[nH]c2ccccc12 | – | Dd2 β5 S28L resistant | – | – | EC50 | 0.0096 ± 0.00088 µM |
| c1cc([C@H]2CC[C@]3(CC2)OO[C@]2(O3)C3CC4CC(C3)CC2C4)ccc1OCCN1CCOCC1 | – | human patients, malaria | oral, 1200 mg | – | lag phase duration | 6 h |
| Cn1nc(C(=O)N2CCC(c3[nH]ncc3Cc3ccccc3)CC2)c2ccccc2c1=O | parasite growth, SYBR Green | – | 72 h | relative to: 3D7-E182D over 3D7 | EC50 ratio | 3.3 |
| C[C@@H]1CC[C@H]2[C@@H](C)C(=O)O[C@@H]3O[C@@]4(C)CC[C@@H]1[C@]32OO4 | – | – | – | relative to: IC50 Dd2 over IC50 3D7 | resistance index | 1.02 |
| CN(C)CCCN1c2ccccc2C(C)(C)c2ccccc21 | – | FVO, purified merozoites, erythrocytes | 50 µM | – | merozoite invasion | 23% |

| Compound | test | test system | conditions | how to read | quantity | value |
| --- | --- | --- | --- | --- | --- | --- |
| C[C@]12C=CC(=O)C=C1CC[C@@H]1C2=CC[C@]2(C)[C@@H](C(=O)CN3CCN(c4cc(N5CCCC5)nc(N5CCCC5)n4)CC3)CC[C@@H]12 | – | D10 | – | – | IC50 | 1.26 µM |
| O[C@@H](c1cc(C(F)(F)F)nc2c(C(F)(F)F)cccc12)[C@H]1CCCCN1 | parasite growth, inhibitor, SYBR Green I | Cam3.1 R539T (MRA-1240) | – | – | IC50 | 0.0105 µM |
| CN(Cc1ccco1)c1ncnc2ccc(-c3ccoc3)cc12 | – | FVO, purified merozoites, erythrocytes | 50 µM | – | merozoite invasion | 89% |
| CCCNC(=O)c1ccnc(-c2ccc(CNC3Cc4ccccc4C3)cc2)c1.O=C(O)C(F)(F)F.O=C(O)C(F)(F)F | parasite growth, SYBR Green | – | 72 h | relative to: 3D7-E182D over 3D7 | EC50 ratio | 1.4 |
| CN(C)CCCN1c2ccccc2Sc2ccccc21 | – | HB3 | – | – | IC50 | 10 µM |
| Cc1ccc(N(C)c2ccc(NC(=O)CN(C)c3cccnc3N3CCCC3=O)cc2)cc1 | parasite growth, LDH | 3D7 population D, CSC1 L954F | 72 h | – | EC50 | 0.252 µM |
| CC(=O)Nc1sc(C)c(C)c1CN1CCc2ccccc2C1 | parasite growth, SYBR Green | – | 72 h | relative to: 3D7-E182D over 3D7 | EC50 ratio | 2.6 |
| OCCN1CCN(CC/C=C2/c3ccccc3Sc3ccc(C(F)(F)F)cc32)CC1 | – | Dd2 | – | – | IC50 | 10 µM |
| CC(C)C[C@@H](CC(=O)N[C@@H](CCCN)CC(=O)N[C@@H]1CCNC[C@H]1C(=O)N[C@H](CC(=O)N[C@@H](CCC(=O)O)CC(=O)O)CC(C)C)NC(=O)[C@@H]1CCCC[C@H]1N | SYBR Green | FVO | concentration not given, 36 h | – | growth inhibition | inactive |
| Cl.Oc1cccc2c1[nH]c1c(C3=CC4(O)CC/C=C\CCCCN5CCC3C3(CC6/C=C\CCCCN6C43)C5)nccc12 (single isomer, unassigned; (+)) | – | W2, chloroquine-resistant | – | relative to: Vero IC50 over W2 IC50 | selectivity index | 18 |
| CC1(C)N=C(N)N=C(N)N1c1ccc(Cl)cc1 | growth, [3H]-hypoxanthine uptake | FCR3 | 96 h | relative to: FCR3 IC50 over 3D7 IC50 | resistance index | 140 |
| C[C@H]1c2cccc(O)c2C(=O)C2=C(O)[C@]3(O)C(=O)C(C(N)=O)=C(O)[C@@H](N(C)C)[C@@H]3[C@@H](O)[C@@H]21 | – | GB4 | – | – | IC50 | 6.31 µM |
| COc1ccc(COC[C@H](C)N2C[C@@H](C)[C@H](CN(C)S(=O)(=O)c3ccc(F)cc3)OCCCCCOc3ccc(NC(=O)Nc4c(C)noc4C)cc3S2(=O)=O)cc1 | asexual blood-stage growth | Dd2, multidrug-resistant | – | – | GI50 | 0.856 µM |
| COc1ccc(CCN(C)CCCC(C#N)(c2ccc(OC)c(OC)c2)C(C)C)cc1OC (centres unmarked) | – | 3D7 | – | – | IC50 | 1.58 µM |
| O=C(CN1CCN(C(=O)c2ccco2)CC1)Nc1ccccc1Br | parasite growth, SYBR Green | 3D7 wild type | 72 h | – | EC50 | 0.253 ± 0.073 µM |
| Cn1cc(-c2ccc3ccn(CC(=O)Nc4ccccc4Cl)c3c2)cn1 | – | 7G8 | – | relative to: 7G8 over 3D7 | EC50 fold shift | 2 fold |
| C[C@H]1[C@@H](O)O[C@@H]2O[C@@]3(C)CC[C@H]4[C@H](C)CC[C@@H]1[C@@]24OO3 | ring-stage survival | 6320 | 700 nM, 6 h | – | parasite survival | 18.9% |
| O=C1C(O)=C([C@H]2CC[C@H](c3ccc(Cl)cc3)CC2)C(=O)c2ccccc21 | growth | C2B | 72 h | – | IC50 | 10.1 ± 0.6 µM |
| C=CCc1ccccc1OCC(O)CNC1(C)CCC(C(C)(C)NC(=O)CBr)CC1 (centres unmarked) | – | GB4 | – | – | IC50 | 0.794 µM |
| Cc1nc(-c2ccc(OCC(C)C)c(C#N)c2)sc1C(=O)O | – | FVO, purified merozoites, erythrocytes | 25 µM | – | merozoite invasion | 100% |

A few entries again:
| Compound | test | test system | conditions | how to read | quantity | value |
| --- | --- | --- | --- | --- | --- | --- |
| Cc1onc(-c2ccccc2)c1-c1ccc(S(N)(=O)=O)cc1 | parasite growth, inhibitor, SYBR Green I | Cam3.1 R539T (MRA-1240) | – | – | IC50 | > 100 µM |
| Cc1nnc(-c2ccc3ccn(CC(=O)Nc4ccccc4Cl)c3c2)o1 | parasite growth | Dd2 PfATP4 F156L | – | relative to: parental Dd2 | EC50 shift | ~2 fold |
| CCCNC(=O)c1ccnc(-c2ccc(CNC3Cc4ccccc4C3)cc2)c1.O=C(O)C(F)(F)F.O=C(O)C(F)(F)F | parasite growth, SYBR Green | – | 72 h | relative to: 3D7-E182D over 3D7 | EC50 ratio | 1.4 |
| c1cc([C@H]2CC[C@]3(CC2)OO[C@]2(O3)C3CC4CC(C3)CC2C4)ccc1OCCN1CCOCC1 | – | human patients, malaria | oral, 1200 mg | – | lag phase duration | 6 h |
| Cc1ccc(N(C)c2ccc(NC(=O)CN(C)c3cccnc3N3CCCC3=O)cc2)cc1 | parasite growth, LDH | 3D7 population D, CSC1 L954F | 72 h | – | EC50 | 0.252 µM |
| CC(C)C[C@@H](CC(=O)N[C@@H](CCCN)CC(=O)N[C@@H]1CCNC[C@H]1C(=O)N[C@H](CC(=O)N[C@@H](CCC(=O)O)CC(=O)O)CC(C)C)NC(=O)[C@@H]1CCCC[C@H]1N | SYBR Green | FVO | concentration not given, 36 h | – | growth inhibition | inactive |
